Results collected from several papers.
Numbered parts are unrelated; each lists some results of a single study. Numbers after ± are the reported error.
UniProt P07711, sequence (whole entry, looked up): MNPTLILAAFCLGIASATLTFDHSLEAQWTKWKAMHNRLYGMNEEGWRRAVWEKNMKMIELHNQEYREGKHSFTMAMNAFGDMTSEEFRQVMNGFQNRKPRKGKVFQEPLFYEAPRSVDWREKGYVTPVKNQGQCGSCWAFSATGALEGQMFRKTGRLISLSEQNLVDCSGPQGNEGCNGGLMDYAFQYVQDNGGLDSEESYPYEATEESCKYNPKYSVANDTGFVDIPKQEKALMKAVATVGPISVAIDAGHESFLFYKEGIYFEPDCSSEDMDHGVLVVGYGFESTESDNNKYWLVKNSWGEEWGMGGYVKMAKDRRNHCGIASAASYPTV

Series 1
Cell line: MDA-MB-231/LM2-4
Method: DNS
Time: 72 h
Notes: 10% FBS
| SMILES | CC50 |
| --- | --- |
| O=C(NCc1ccc(C(F)(F)F)cc1)c1cn(Cc2ccc(F)cc2)c2ccc(Oc3ccccc3)cc2c1=O | 38.6 ± 0.64 µM |
| O=C(NCc1ccc(Cl)cc1)c1cn(Cc2ccc(Cl)cc2)c2ccc(Oc3ccccc3)cc2c1=O | 49.66 ± 0.02 µM |
| O=C(NCc1ccc(O)cc1)c1cn(Cc2ccc(F)cc2)c2ccc(Oc3ccccc3)cc2c1=O | 58.1 ± 5.36 µM |

Further values, each from its own experiment
| Compound | target or system | test | system | setting | scale | quantity | value |
| --- | --- | --- | --- | --- | --- | --- | --- |
| C[C@@H]1C[C@@H]([C@H](O)CC2CC(=O)NC(=O)C2)C(=O)[C@@H](C)C1 | HepG2 | Click-iT HPG fluorescence | – | 6.25 µM, 50 µM | relative to: DMSO vehicle | protein translation | decreased |
| Cc1cn([C@H]2C[C@H](N=[N+]=[N-])[C@@H](CO)O2)c(=O)[nH]c1=O | HIV-1 | viral replication, multicycle luciferase | MT4, NL4-3 NanoLuc-sec reporter | – | – | IC50 | 0.017 ± 0.0046 µM |
| O=C(Nc1ncccn1)OCc1ccccc1 | Candida albicans | – | – | concentration not given | – | activity class | inactive |
| Cc1onc(-c2ccccc2)c1C(=O)N1CCN(c2ccc([N+](=O)[O-])cc2Cl)CC1 | MDCK | cell viability | – | 2 days | – | CC50 | > 20 µM |
| CC(C)C[C@H](NC(=O)[C@H]1O[C@@H]1C(=O)O)C(=O)NCCCCN=C(N)N | Procathepsin L (CTSL, Homo sapiens, UniProt P07711) | enzyme activity, inhibitor | – | – | – | IC50 | 0.0015 µM |

For quick reference, copied from above (further values, each from its own experiment):
| Compound | target or system | test | system | setting | scale | quantity | value |
| --- | --- | --- | --- | --- | --- | --- | --- |
| Cc1cn([C@H]2C[C@H](N=[N+]=[N-])[C@@H](CO)O2)c(=O)[nH]c1=O | HIV-1 | viral replication, multicycle luciferase | MT4, NL4-3 NanoLuc-sec reporter | – | – | IC50 | 0.017 ± 0.0046 µM |
